{"data": "Results of several laboratories", "note": "Each numbered part is a random draw from the data of one study; scales do not carry over between parts."}
{"data": "Block 1", "target": "RING finger protein unkempt homolog, zinc fingers 1-6, GST-SBP tag (UNK, Homo sapiens, UniProt Q9C0B0, residues 30-357)", "technique": "RNA Bind-n-Seq", "molecule type": "RNA", "sample": "in vitro", "concentration": "not given", "notes": "RNA with constant flanks, human and mouse sites, ends assumed", "relative to": "input RNA pool", "direction": "higher = stronger binding", "Residues (chain)": "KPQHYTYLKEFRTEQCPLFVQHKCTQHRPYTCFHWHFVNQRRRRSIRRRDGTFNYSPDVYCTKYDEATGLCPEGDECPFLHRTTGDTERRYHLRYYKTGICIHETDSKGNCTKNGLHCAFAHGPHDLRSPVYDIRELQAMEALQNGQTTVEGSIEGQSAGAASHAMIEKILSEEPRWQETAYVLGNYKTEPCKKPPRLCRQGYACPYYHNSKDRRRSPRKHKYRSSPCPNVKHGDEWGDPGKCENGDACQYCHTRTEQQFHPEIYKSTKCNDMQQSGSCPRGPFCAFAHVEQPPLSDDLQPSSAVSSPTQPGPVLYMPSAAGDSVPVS"}
{"Strand": "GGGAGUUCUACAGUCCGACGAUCGAGUUCCAAAGUGUAGUCCCUCCCAAAGUCAUUUGUGUGAGGCAGAGAAAGCCACACUCUGAACACAUUUCAUGUCUCAGGAAUUCACAUUCCAGAUUCAGGAAUUUUAUUCCAAAGUCCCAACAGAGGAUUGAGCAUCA", "bound/input enrichment": "0.0879 ratio"}
{"Strand": "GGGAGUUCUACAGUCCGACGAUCACCCCCUCUAGGAAGUUAUUUUAUGUAGCAUGUUUGCAUAUACGCAUUGUGUGGCAUGUGCAUAGAGGCUUGUUUUACACCUAUCUGCUCAUUUUGUUGUGUUAGCUUUUCUGGUUUAUUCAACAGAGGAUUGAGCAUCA", "bound/input enrichment": "1.38 ratio"}
{"Strand": "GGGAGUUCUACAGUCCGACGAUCGCAGGGGUUUGUUUGUUUGCUUGCUUGUUUGUUUUUAGUUCUGCCAUAUGGAUUUCAGUAAUGGGUCCUCCCUUGACUUGCAGUUAAGCAUGAAACUUCUCAUUGGGUAGUUUCAAAACUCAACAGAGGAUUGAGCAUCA", "bound/input enrichment": "0.353 ratio"}
{"Strand": "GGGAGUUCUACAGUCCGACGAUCAGAUAUUUUGAAGAAAAAAAAAAUUCAAACAGAUUUAUCAAGGGUAACCAGCUUGGAGUCUAGCAAUUUUGCCAAUGUGCUUACCAAUUUGGGGGCUUGUUUUUCUUCCCUUCCUUACAUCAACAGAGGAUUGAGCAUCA", "bound/input enrichment": "0.357 ratio"}
{"Strand": "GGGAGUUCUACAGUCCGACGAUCACGGCUCGUAGUUUAUUAAAUGAUGUCCAGUUCGGCCAGUUUGGAGAUGACCCAAAGGAAGAAGUCAUGGUGUUGGAGAGGAUCUUACUGCAGACCAUAAAGUUUGACUUACAAGUAGAGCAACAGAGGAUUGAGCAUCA", "bound/input enrichment": "2.45 ratio"}
{"data": "Block 2", "target": "Fragile X messenger ribonucleoprotein 1, C-terminal low-complexity region (Fmr1, Mus musculus, UniProt P35922)", "technique": "RNA Bind-n-Seq", "molecule type": "RNA", "sample": "in vitro", "concentration": "200 nM", "notes": "whole 134-nt RNA, ends assumed", "with": "150 mM LiCl", "relative to": "input library", "direction": "higher = stronger binding", "each molecule": "7-deaza-guanosine replaces G"}
{"Strand": "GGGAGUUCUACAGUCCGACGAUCCCUCAAGUCCUGUGCUACACAUCGUAUGUACCGAAUCGGGAGGGUGGGAGGGAAAGUAUUAUGUUACGCCGUUCGGAUCUGCACUUCCAGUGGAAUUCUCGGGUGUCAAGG", "log2 enrichment": -0.89}
{"Strand": "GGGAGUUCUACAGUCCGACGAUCCUGUGCUACACAUCGUAUGUACCGAAUCGGGGAAAAAAAGGGGAAAGGGGUUUUUUUGGGGAAAGUAUUAUGUUACGCCGUUCGGAUCUGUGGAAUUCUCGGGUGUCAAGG", "log2 enrichment": -0.934}
{"Strand": "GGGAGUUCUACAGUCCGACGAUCAAGUCCUGUGCUACACAUCGUAUGUACCGAAUCGGGAAAAAAAGGGAGGGUUUGGGAAAGUAUUAUGUUACGCCGUUCGGAUCUGCACUUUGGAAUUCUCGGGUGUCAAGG", "log2 enrichment": -1.99}
{"Strand": "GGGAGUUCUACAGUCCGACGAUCGUCCUGUGCUACACAUCGUAUGUACCGAAUCGGGGAGGGGAAAGGGGUUUUUUUGGGGAAAGUAUUAUGUUACGCCGUUCGGAUCUGCACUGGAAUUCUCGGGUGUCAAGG", "log2 enrichment": 0.941}
{"Strand": "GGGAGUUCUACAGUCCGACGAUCGCAGGAAGUAAAAACAAAUGCAAAUGCUUCGGAUAGUGGCAGGGGUGGGGGUUGCUAAGGAAAGGGUGGGAUGGGAGUGGGUAAAGAGUUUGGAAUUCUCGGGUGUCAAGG", "log2 enrichment": 1.22}
{"Strand": "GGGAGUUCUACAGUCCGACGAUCACCAUGCAGGAAAGCAUCUUUGGGAAGUGGGGCAAGGGGGGGAUAGGGAGGGGGGUAACACUUUGGGAACAGGUGGUCCCAGGUCGUUUCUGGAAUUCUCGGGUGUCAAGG", "log2 enrichment": 1.18}
{"data": "Block 3", "target": "Histone acetyltransferase KAT6A, winged helix 2, GST fusion (KAT6A, Homo sapiens, UniProt Q92794, residues 85-181)", "technique": "protein binding microarray", "molecule type": "double-stranded DNA, one strand shown", "sample": "in vitro", "concentration": "not given", "notes": "8-mer, flanks averaged, mean of 2 arrays, mostly near background", "relative to": "not given", "direction": "higher = stronger binding", "Construct (chain)": "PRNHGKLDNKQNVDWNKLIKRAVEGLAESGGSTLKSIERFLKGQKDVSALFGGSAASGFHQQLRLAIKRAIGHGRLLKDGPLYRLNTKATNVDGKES"}
{"Strand": "AACCCTGT", "E-score": 0.0556}
{"Strand": "AGCTCTGG", "E-score": 0.0198}
{"Strand": "TCCACAAA", "E-score": 0.212}
{"Strand": "CATGTACC", "E-score": -0.27}
{"Strand": "CAGCCCGG", "E-score": 0.259}
{"Strand": "CCTGACAA", "E-score": 0.0736}
{"Strand": "GTGCCGGA", "E-score": 0.0795}
{"Strand": "AGTACGAT", "E-score": -0.00302}
{"Strand": "ATGCTCGC", "E-score": 0.0768}
{"Strand": "CAAGTATA", "E-score": -0.25}
{"Strand": "AGTGATGC", "E-score": -0.0481}
{"data": "Single results of other studies"}
{"Molecule": "PhoQ, residues 284 288 289 292 302 303 TLASMF", "target": "PhoP, residues 12 14 15 18 19 QWHVF (Escherichia coli, UniProt P23836)", "assay": "Sort-seq, item: YFP reporter", "test system": "E. coli", "conditions": "PhoQ-PhoP variant library, with: 10 µM Mg2+", "how to read": "relative to: high Mg2+ state, higher = stronger signaling", "measurement": "fold induction", "result": 9.82}
